Measurements gathered from unrelated publications.
Lines come from different studies, so protocols differ.
B1: fruR 1-326 (Vibrio cholerae, UniProt Q9KM69); chain MTLDEIAKLAGVSKTTASYVINGKAQKYRISEKTQHKVMAVVEQYNFRPDHAASALRAGNSRSFGLIIPDLENTSYARLAKLLEQNSRQAGYQILIACSDDDPQIEMAAAEALVSRRIDALFVASGIPSASEYYLKLQQSGTPVIAIDRALDDEYFSCVISEDFGAAFELTRSVLTQDVHSVGLVGALPELNVSREREQGFAMAVKQRGLPTTLGYGEHFNREEGRKVFAKWVANDQLPDAVVATSYTLLEGILDVLLEQPELMQKVRLATFGDNRLLDFLPIRVNSLPQQFELIADSALALALNASAKRYQTGIELIPRQLKVRT
B2: higA 1-104 (Proteus vulgaris, UniProt Q7A224); sequence looked up; chain MRQFKVSHPGEMIARDLEDMGVSGRRFAHNIGVTPATVSRLLAGKTALTPSLSIRIAAALGSTPEFWLRLQSNYDLRQLENQIDTSGIVLYGESNEQQQNAQEH
B3: pnp 1-763 T470A/S471A (Mycobacterium smegmatis, UniProt A0QVQ5); chain MSVVELEDGVYESTAVIDNGSFGTRTIRFETGRLAQQAAGSAVAYLDDETMLLSATTASKNPKDHFDFFPLTVDVEERMYAAGRIPGSFFRREGRPSTDAILTCRLIDRPLRPSFVDGLRNEIQVVVTVMSLDPKDLYDVLAINAASMSTQLAGLPFSGPVGGARIALIDGTWVAFPTVEQLERAVFDMVVAGRIVGDGDSADVAIMMVEAEATENVVELVAGGAQAPTEAVVAEGLEAAKPFIKALCAAQQELADRAAKPAGEYPVFPDYEADVYDAVASVATEALAEALTIAGKTERNDRTDEIKVEVLERLAEPYAGREKEIGAAFRSLTKKLVRQRILTDHFRIDGRGITDIRALSAEVAVIPRAHGSALFERGETQILGVTTLDMIKMAQQIDSLGPENTKRYMHHYNFPPYSTGETGRVGSPKRREIGHGALAERALVPVLPSIEEFPYAIRQVSEALGSNGSAAMGSVCASTLALLNAGVPLKAPVAGIAMGLVSDDVDVDGKVEKRYVALTDILGAEDAFGDMDFKVAGTKDFVTALQLDTKLDGIPSQVLAGALSQAKDARLTILDVMAEAIDRPDEMSPYAPRITTIKVPVDKIGEVIGPKGKMINSITEETGAQISIEDDGTVFVGAADGLSAQAAIDKINAIANPQLPKVGERFLGTVVKTTDFGAFVSLLPGRDGLVHISKLGKGKRIAKVEDVVKVGDKLRVEIADIDNRGKISLVLVAEESAESAESAGDKGAEKAEGAAADVTPAEA
B4: FAM222A del91-300 (Homo sapiens, UniProt Q5U5X8); sequence looked up; chain MLACLQRTQNAPGQHLACPSKSLELRKCEAVASAMHSSRYPSPAELDAYAEKVANSPLSIKIFPTNIRVPQHKHLSRTVNGYDTSGQRYSRAYSGSTVASKSPEACGGRAYERASGSPLNCGVGLPTSFTVGQYFAAPWNSVLVTPTSDCYNPAAAVVVTELGPGAARELAGPPADALSGLPSKSVCNTSVLSSSLQSLEYLINDIRPPCIKEQMLGKGYETVAVPRLLDHQHAHIRLPVYR
B5: pnp 1-763 K534A (Mycobacterium smegmatis, UniProt A0QVQ5); chain MSVVELEDGVYESTAVIDNGSFGTRTIRFETGRLAQQAAGSAVAYLDDETMLLSATTASKNPKDHFDFFPLTVDVEERMYAAGRIPGSFFRREGRPSTDAILTCRLIDRPLRPSFVDGLRNEIQVVVTVMSLDPKDLYDVLAINAASMSTQLAGLPFSGPVGGARIALIDGTWVAFPTVEQLERAVFDMVVAGRIVGDGDSADVAIMMVEAEATENVVELVAGGAQAPTEAVVAEGLEAAKPFIKALCAAQQELADRAAKPAGEYPVFPDYEADVYDAVASVATEALAEALTIAGKTERNDRTDEIKVEVLERLAEPYAGREKEIGAAFRSLTKKLVRQRILTDHFRIDGRGITDIRALSAEVAVIPRAHGSALFERGETQILGVTTLDMIKMAQQIDSLGPENTKRYMHHYNFPPYSTGETGRVGSPKRREIGHGALAERALVPVLPSIEEFPYAIRQVSEALGSNGSTSMGSVCASTLALLNAGVPLKAPVAGIAMGLVSDDVDVDGKVEKRYVALTDILGAEDAFGDMDFAVAGTKDFVTALQLDTKLDGIPSQVLAGALSQAKDARLTILDVMAEAIDRPDEMSPYAPRITTIKVPVDKIGEVIGPKGKMINSITEETGAQISIEDDGTVFVGAADGLSAQAAIDKINAIANPQLPKVGERFLGTVVKTTDFGAFVSLLPGRDGLVHISKLGKGKRIAKVEDVVKVGDKLRVEIADIDNRGKISLVLVAEESAESAESAGDKGAEKAEGAAADVTPAEA
B6: MS2 coat protein dimer fused single-chain dimer 2-130 (bacteriophage MS2, UniProt P03612); sequence looked up; chain ASNFTQFVLVDNGGTGDVTVAPSNFANGVAEWISSNSRSQAYKVTCSVRQSSAQNRKYTIKVEVPKVATQTVGGVELPVAAWRSYLNMELTIPIFATNSDCELIVKAMQGLLKDGNPIPSAIAANSGIYASNFTQFVLVDNGGTGDVTVAPSNFANGVAEWISSNSRSQAYKVTCSVRQSSAQNRKYTIKVEVPKVATQTVGGVELPVAAWRSYLNMELTIPIFATNSDCELIVKAMQGLLKDGNPIPSAIAANSGIY
B7: mpr E155A (Mycobacterium smegmatis, UniProt Q50442); chain MTTPQPYPGMPSQPAPQGVPYPPQQPAKKKRKWPAIVGGVIALMIVGSIFNDDKKDTTPAENTATVAQAPAAAPTKEVPETTATINTPVRDGKFEFVVRSVEPGLSEVGDNPFLNQKAQGQFVIVTLSVQNIGDRPQGFSPSNQKLFDTEGRSFATDTSAQIALDNNDIAVWDNINPGNTVDVSLVYDMPVDAVPASIELHDSMFSGGVTVNLTP
B8: pecS 15-179 (Pectobacterium atrosepticum, UniProt Q6D5K4); chain DAVDAILEQWRRERPDLDASPMGPIGRLRRCAVLMDQRLESCFSRFDLSSWEFDMLATLRRAGAPHCLSPTELFSTLMVTSGTMTHRLKRLETRGFIERVQNELDARSTLVQLTSSGLELINRAVEAHIENERQVLSVLPAEVLAALDTNLAALLRGLESHNKGN
B9: recA (Acinetobacter baumannii, UniProt A3M645); sequence looked up; chain MDENKSKALQAALSQIEKQFGKNTVMRLGDNTVQAVEAVSTGSLTLDIALGIGGLPKGRIIEIYGPESSGKTTMTLQAIAQCQKSGGTCAFIDAEHALDPQYARKLGVDIDNLLVSQPDNGEQALEIADMLVRSGAIDLIVVDSVAALTPKAEIEGEMGDSHMGLQARLMSQALRKITGNAKRSNCMVIFINQIRMKIGVMFGSPETTTGGNALKFYASVRLDIRRIGQVKEGDEIVGSETKVKVVKNKMAPPFKEAIFQILYGKGTNQLGELVDLAVQQDIVQKAGAWYSYQGNKIGQGKNNVIRYFEENTQIAEEIERNIREQLLTTGTNGAVQIEDEEEPDLLLES
B10: crcB 1-128 R29K/N43S/R124C (Bordetella pertussis, UniProt Q7VYU0); chain MLTYAPLNFIAIGIGATLGAWLRWVLGLKLNGAGWPWGTLTASLVGGYLIGVMVALIASHPEWPAWIRLAAVTGFLGGLTTFSTFSAETVDMLERGVYATAAAYAGASLAGSLAMTGLGLATVCLLLR
UniProt P67087, sequence (whole entry, looked up): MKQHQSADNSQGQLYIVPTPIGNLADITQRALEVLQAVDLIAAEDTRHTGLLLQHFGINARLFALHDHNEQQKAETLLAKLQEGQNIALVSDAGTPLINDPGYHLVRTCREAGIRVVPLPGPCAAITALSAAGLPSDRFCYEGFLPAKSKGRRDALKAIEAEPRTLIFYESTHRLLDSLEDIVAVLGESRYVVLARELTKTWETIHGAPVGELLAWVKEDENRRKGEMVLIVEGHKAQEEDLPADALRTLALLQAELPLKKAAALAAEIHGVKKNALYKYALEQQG

Substance = B1 (fruR 1-326); target or system = itself; test = crystal structure; measurement = binding; value = binds
Substance = B2 (higA 1-104); target or system = itself; test = X-ray crystallography; measurement = binding; value = binds
Substance = B3 (pnp 1-763 T470A/S471A); target or system = itself; test = SEC; measurement = binding; value = binds
Substance = MMIALGVACAIALAIAAVYF (VAMP2 TMD); target or system = itself; test = X-ray crystallography; test system = peptide; measurement = binding; value = binds
Substance = B4 (FAM222A del91-300); target or system = itself; test = SDD-AGE; measurement = binding; value = binds
Substance = B5 (pnp 1-763 K534A); target or system = itself; test = SEC; measurement = binding; value = binds
Substance = B6; target or system = itself; test = SEC, TEM, DLS; measurement = binding; value = binds
Substance = B7 (mpr E155A); target or system = itself; test = cross-linking; conditions = added: GTP; measurement = binding; value = binds
Substance = rsmI (Escherichia coli, UniProt P67087); target or system = itself; test = cryo-EM; measurement = binding; value = binds
Substance = B8 (pecS 15-179); target or system = itself; test = crystal structure; measurement = binding; value = binds
Substance = B9 (recA); target or system = itself; test = SEC; measurement = binding; value = binds
Substance = B10 (crcB 1-128 R29K/N43S/R124C); target or system = itself; test = SEC; measurement = binding; value = binds
Substance = insulin human; test = refers to: KCNMA1 mRNA; test system = EcoHIV-infected mouse, brain; conditions = i.p., dose not given; how to read = baseline: PBS; measurement = fold change; value = 1.02

Excerpt of the above:
Substance = B3 (pnp 1-763 T470A/S471A); target or system = itself; test = SEC; measurement = binding; value = binds
